Experimental data of several laboratories.
Numbered parts are unrelated; each lists some results of a single study. “And” joins repeats or separate records; there may be more than shown. Substitutions count along the parent as printed.

Block 1 — target: vanadate, free oxyanion; technique: microfluidic competitive inhibition; medium: in vitro, cell-free expressed; concentration: not given; direction: lower = stronger binding
Notes: derived from inhibition constants, unchanged parent 676 nM
Parent: PafA, mature enzyme, eGFP fusion (Elizabethkingia meningoseptica, UniProt Q9KJX5); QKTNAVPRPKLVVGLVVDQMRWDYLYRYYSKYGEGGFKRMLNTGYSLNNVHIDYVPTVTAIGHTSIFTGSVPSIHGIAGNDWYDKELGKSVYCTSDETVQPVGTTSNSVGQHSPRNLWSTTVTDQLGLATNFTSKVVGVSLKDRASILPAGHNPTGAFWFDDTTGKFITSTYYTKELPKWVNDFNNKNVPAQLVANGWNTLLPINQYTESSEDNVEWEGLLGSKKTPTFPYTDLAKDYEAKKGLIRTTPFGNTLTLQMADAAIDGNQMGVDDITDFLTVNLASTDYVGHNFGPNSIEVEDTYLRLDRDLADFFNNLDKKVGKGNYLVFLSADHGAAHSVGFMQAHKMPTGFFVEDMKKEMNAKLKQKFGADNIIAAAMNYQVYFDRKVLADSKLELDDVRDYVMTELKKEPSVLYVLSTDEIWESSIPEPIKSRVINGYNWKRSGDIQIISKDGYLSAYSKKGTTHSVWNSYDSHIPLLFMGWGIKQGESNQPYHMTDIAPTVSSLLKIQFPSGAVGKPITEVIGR
| Change | oxyanion analog dissociation constant [µM] |
| --- | --- |
| V122G | 0.699 |
| P230G | 0.548 |
| T43V | 0.652 |
| N116G | 1.1 |

Block 2 — observed: binding; technique: phage display NGS; form: peptide; concentration: concentration not given; reference: input library
Target: UDP-N-acetylglucosamine--peptide N-acetylglucosaminyltransferase 110 kDa subunit (OGT, Homo sapiens, UniProt O15294)
Target sequence (O15294 1-1046): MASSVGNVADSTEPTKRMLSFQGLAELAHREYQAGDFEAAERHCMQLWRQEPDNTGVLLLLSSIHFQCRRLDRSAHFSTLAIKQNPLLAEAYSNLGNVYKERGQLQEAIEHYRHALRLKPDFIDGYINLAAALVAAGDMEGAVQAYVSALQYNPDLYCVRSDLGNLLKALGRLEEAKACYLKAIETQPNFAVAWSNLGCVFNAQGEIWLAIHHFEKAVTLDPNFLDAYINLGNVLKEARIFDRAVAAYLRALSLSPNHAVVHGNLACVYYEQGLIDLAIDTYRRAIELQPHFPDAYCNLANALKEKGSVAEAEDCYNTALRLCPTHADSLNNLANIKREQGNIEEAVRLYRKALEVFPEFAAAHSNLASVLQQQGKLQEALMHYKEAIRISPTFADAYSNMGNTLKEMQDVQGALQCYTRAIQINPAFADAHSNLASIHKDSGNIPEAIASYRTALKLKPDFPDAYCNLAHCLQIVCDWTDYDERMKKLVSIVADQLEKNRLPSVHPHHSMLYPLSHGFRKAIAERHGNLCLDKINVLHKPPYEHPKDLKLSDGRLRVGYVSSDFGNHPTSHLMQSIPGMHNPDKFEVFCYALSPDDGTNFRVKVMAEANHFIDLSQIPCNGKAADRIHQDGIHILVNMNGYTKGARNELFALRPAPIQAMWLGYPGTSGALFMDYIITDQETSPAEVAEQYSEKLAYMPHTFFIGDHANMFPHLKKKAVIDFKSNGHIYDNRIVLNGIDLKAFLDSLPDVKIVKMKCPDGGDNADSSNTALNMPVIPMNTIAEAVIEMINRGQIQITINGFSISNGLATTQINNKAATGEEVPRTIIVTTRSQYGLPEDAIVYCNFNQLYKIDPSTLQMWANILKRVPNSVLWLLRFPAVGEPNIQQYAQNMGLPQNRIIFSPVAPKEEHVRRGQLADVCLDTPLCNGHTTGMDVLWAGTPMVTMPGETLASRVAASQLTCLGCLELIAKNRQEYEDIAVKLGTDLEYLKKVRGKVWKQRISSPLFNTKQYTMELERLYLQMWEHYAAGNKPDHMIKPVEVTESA
| Sequence | enrichment fold change |
| --- | --- |
| ANTLDYTPFYTIEY | 1.83 |
| NRYTETRHMHQVHHS | 5.68 |
| VFTPSYQIYIKPRQF | 6.56 |
| MEEYLPQYTIEVVPI | 2.61 |
| HIVHYNKYFASGTHT | 2.38 |
| HQQHDHHKDNNGQFM | 2.72 |
| QPQHHMWQHHAYDIK | 6.49 |

Block 3 — Substance: meglumine antimoniate; organism: Leishmania infantum chagasi; technique: qPCR; host: golden hamster chronic infection; route: intraperitoneal; dose: 50 mg/kg/day; time: 10 days
| measured | medium | threshold cycle |
| --- | --- | --- |
| microglobulin mRNA | spleen | 22.6 cycles and 21.9 cycles and 18.1 cycles and 18.2 cycles |
| IL4 mRNA | liver | 33.7 cycles and 33.6 cycles and 34.9 cycles and 31.9 cycles and 34 cycles and 34.7 cycles |
| TNF mRNA | liver | 26 cycles and 28.2 cycles and 28.6 cycles and 27.6 cycles and 28 cycles and 28.5 cycles |
| IL10 mRNA | liver | 29.4 cycles and 30.9 cycles and 31.6 cycles and 31.8 cycles and 31.9 cycles and 31.2 cycles |

Block 4 — target: CCNA1, cyclin fold, Cln2 fusion (human); technique: yeast growth competition, sequencing; medium: yeast; notes: strong parent motif; reference: not given; direction: higher = stronger binding
Parent: viral docking peptide; YKVKRRLVFGADD; partner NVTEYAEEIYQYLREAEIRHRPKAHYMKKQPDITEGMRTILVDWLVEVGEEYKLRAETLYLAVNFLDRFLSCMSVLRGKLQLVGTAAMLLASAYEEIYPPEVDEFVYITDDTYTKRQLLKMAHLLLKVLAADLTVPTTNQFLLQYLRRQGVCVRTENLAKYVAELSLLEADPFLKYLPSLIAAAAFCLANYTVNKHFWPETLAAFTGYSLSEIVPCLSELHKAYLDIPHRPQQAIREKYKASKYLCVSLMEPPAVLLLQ
| Change | normalised enrichment score |
| --- | --- |
| D12R | 0.579 |
| F9T | 0.538 |
| V8N | 1.44 |
| K2M | 1.5 |
| R6K | 1.26 |
| K4D | 0.448 |
| K2R | 1.31 |
| V3A | 0.884 |
| V8F | 0.709 |
| A11G | 1.11 |
| A11E | 1.43 |
| R6L | 0.227 |
| L7Y | 0.144 |
| K2Y | 0.925 |
| K4G | 0.519 |

Repeated from above (block 3):
| measured | medium | threshold cycle |
| --- | --- | --- |
| IL4 mRNA | liver | 33.7 cycles and 33.6 cycles and 34.9 cycles and 31.9 cycles and 34 cycles and 34.7 cycles |
| TNF mRNA | liver | 26 cycles and 28.2 cycles and 28.6 cycles and 27.6 cycles and 28 cycles and 28.5 cycles |
| IL10 mRNA | liver | 29.4 cycles and 30.9 cycles and 31.6 cycles and 31.8 cycles and 31.9 cycles and 31.2 cycles |
